Measured values collected from several papers.
Each numbered part is a random draw from the data of one study; scales do not carry over between parts. ± gives the spread as reported. Converted amounts (≈) assume the structure as drawn.
Sequence of UniProt P26769 (whole entry, looked up): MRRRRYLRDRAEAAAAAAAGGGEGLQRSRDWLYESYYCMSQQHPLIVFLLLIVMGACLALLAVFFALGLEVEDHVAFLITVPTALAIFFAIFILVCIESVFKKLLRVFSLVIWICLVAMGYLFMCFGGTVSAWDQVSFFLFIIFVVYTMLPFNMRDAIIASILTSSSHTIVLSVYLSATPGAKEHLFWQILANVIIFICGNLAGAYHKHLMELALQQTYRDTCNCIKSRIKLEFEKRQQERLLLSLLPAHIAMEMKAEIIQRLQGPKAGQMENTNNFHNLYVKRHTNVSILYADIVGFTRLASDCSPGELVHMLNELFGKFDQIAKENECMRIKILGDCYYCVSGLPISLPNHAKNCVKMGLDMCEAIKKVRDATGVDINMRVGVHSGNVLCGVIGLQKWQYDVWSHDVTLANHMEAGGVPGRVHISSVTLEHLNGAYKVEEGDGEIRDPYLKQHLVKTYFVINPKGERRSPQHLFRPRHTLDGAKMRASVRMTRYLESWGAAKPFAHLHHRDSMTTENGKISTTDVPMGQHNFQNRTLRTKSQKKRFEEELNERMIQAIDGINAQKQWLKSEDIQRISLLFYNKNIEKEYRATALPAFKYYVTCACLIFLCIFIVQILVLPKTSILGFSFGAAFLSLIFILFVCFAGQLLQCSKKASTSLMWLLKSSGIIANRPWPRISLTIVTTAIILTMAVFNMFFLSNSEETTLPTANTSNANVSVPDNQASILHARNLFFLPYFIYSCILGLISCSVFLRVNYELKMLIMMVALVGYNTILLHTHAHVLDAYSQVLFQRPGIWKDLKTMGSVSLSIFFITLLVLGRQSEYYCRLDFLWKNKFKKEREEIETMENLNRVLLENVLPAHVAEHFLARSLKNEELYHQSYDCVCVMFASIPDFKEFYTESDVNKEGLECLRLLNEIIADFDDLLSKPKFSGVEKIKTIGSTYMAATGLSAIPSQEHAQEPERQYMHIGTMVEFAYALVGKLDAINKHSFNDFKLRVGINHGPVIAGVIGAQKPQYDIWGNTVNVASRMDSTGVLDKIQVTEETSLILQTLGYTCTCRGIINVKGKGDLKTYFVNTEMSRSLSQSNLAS
Sequence of UniProt P30803 (whole entry, looked up): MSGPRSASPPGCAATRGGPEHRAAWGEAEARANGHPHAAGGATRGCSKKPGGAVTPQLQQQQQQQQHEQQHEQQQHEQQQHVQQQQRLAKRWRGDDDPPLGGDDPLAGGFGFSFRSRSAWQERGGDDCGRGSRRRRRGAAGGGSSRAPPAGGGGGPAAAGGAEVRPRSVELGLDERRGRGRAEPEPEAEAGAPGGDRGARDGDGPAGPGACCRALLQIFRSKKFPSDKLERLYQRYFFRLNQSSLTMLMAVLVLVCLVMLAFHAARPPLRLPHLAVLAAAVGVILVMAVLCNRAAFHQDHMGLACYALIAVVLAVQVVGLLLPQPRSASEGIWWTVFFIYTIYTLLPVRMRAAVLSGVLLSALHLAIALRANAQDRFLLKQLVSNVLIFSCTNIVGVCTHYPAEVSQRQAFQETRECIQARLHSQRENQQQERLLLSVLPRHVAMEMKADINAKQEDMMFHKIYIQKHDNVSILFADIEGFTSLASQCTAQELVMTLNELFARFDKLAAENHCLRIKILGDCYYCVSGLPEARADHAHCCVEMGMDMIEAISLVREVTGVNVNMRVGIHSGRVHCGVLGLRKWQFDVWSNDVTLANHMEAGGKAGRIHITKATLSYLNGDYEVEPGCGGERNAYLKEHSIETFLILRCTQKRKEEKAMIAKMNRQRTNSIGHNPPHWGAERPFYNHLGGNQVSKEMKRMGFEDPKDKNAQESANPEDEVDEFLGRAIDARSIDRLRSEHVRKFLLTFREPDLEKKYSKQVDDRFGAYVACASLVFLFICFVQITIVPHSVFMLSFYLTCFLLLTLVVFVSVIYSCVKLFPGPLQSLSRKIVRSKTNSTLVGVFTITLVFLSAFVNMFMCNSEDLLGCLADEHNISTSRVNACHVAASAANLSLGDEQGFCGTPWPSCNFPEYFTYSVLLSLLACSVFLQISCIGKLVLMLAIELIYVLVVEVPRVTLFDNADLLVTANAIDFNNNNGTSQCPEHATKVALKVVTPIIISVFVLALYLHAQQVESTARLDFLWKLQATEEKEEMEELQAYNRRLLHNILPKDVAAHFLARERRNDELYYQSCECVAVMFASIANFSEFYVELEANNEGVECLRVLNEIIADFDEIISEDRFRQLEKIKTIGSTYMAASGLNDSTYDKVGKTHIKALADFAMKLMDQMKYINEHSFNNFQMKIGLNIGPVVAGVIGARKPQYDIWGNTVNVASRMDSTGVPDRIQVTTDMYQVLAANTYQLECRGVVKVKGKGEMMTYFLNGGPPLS
Sequence of UniProt P21397 (whole entry, looked up): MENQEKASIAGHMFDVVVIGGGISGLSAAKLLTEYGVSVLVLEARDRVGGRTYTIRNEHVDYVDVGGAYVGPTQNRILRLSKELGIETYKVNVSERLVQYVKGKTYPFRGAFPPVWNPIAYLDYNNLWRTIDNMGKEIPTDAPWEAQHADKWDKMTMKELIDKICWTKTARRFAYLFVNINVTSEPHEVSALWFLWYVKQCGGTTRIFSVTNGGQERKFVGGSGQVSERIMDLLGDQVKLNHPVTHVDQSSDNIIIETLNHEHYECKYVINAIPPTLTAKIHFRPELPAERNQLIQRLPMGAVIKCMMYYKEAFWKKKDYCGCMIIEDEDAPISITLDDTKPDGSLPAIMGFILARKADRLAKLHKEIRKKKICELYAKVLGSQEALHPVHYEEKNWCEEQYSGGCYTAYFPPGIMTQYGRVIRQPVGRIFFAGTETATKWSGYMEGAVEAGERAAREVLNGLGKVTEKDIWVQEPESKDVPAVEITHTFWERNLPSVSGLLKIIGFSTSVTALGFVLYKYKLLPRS

Series 1
Structure (SMILES): CC[C@H](C)[C@H](NC(=O)[C@H](CCCCN)NC(=O)[C@H](CCC(N)=O)NC(=O)[C@H](Cc1ccccc1)NC(=O)[C@@H](NC(=O)[C@H](CCCCN)NC(=O)[C@H](CCCCN)NC(=O)[C@H](CC(C)C)NC(=O)[C@H](C)NC(=O)[C@H](CC(N)=O)NC(=O)[C@@H](N)CC(C)C)C(C)C)C(=O)N[C@@H](Cc1c[nH]cn1)C(N)=O
Time: 18 h
Temperature: 37 °C
| organism | assay | system | MIC |
| --- | --- | --- | --- |
| Staphylococcus aureus |  | USA300, resistant | 8 µM (≈ 11.5 µg/mL) |
| Klebsiella pneumoniae | broth microdilution | ATCC 13883 | 8 µM (≈ 11.5 µg/mL) |
| Pseudomonas aeruginosa | broth microdilution | ATCC 27853 | 8 µM (≈ 11.5 µg/mL) |
| Acinetobacter baumannii | broth microdilution | ATCC 19606 | 4 µM (≈ 5.75 µg/mL) |

Other studies, line by line
| SMILES | tested on | assay | setting | measurement | value |
| --- | --- | --- | --- | --- | --- |
| CC(C)C(NC(=O)OCc1ccccc1)C(=O)Nc1ccc(C2CC2N)cc1 (centres unmarked) | MV4-11 AML cells |  |  | IC50 | > 100 µM |
| CNc1ccccc1C(=O)O[C@H]1[C@@H](O)[C@H](n2cnc3c(N)ncnc32)O[C@@H]1COP(=O)(O)OP(=O)(O)O | Adcy2/ADCY5, C1/C2 domains (Rattus norvegicus, UniProt P26769+P30803) | adenylyl cyclase activity, inhibitor | together with: Mn2+ forskolin | Ki | 2.4 ± 0.11 µM |
| CSCC[C@@H]1NC(=O)[C@@H](Cc2ccccc2)NC(=O)[C@H](CC(=O)O)NC(=O)CNC(=O)[C@H](CCCNC(=N)N)NC1=O | A549 |  | 48 h, 10% FBS | IC50 | > 10 µM |
| NC1CC1c1ccc(NC(=O)Cc2ccc3ccccc3c2)cc1 (centres unmarked) | MAOA (Homo sapiens, UniProt P21397) | enzyme activity, inhibitor, HRP-coupled | 100 µM, together with: kynuramine substrate | inhibition | 89% |

A few entries again (series 1):
| organism | assay | system | MIC |
| --- | --- | --- | --- |
| Staphylococcus aureus |  | USA300, resistant | 8 µM (≈ 11.5 µg/mL) |
